Results of several laboratories.
Each numbered part is a random draw from the data of one study; scales do not carry over between parts. Positions count from the first letter of the parent shown.
UniProt P51451, sequence (whole entry, looked up): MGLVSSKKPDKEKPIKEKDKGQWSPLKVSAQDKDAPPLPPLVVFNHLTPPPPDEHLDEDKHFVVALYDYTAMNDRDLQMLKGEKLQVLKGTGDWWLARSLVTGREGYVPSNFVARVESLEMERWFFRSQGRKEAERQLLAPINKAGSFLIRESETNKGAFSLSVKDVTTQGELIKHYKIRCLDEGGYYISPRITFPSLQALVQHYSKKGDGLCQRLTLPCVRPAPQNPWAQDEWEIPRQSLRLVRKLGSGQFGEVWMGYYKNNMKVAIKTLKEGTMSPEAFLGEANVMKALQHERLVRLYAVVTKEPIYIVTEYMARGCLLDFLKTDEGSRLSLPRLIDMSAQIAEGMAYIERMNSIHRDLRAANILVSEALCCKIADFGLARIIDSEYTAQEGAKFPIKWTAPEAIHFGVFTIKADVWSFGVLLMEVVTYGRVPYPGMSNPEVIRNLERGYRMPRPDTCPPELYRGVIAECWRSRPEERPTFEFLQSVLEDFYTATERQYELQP

Series 1
Target: RING finger protein unkempt homolog, zinc fingers 1-6, GST-SBP tag (UNK, Homo sapiens, UniProt Q9C0B0, residues 30-357)
UniProt Q9C0B0, sequence (30-357, looked up): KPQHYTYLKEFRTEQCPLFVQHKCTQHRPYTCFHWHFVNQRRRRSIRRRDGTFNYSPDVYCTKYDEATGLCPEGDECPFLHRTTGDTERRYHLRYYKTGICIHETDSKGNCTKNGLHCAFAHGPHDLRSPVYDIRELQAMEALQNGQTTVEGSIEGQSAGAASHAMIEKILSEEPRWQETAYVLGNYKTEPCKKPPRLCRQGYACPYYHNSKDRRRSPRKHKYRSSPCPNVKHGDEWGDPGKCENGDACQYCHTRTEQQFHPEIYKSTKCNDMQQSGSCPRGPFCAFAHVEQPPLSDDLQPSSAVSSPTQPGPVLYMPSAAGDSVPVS
Method: RNA Bind-n-Seq
Form: RNA
Matrix: in vitro
Concentration: not given
Notes: RNA with constant flanks, human and mouse sites, ends assumed
Baseline: input RNA pool
Reading: higher = stronger binding
Quantity: bound/input enrichment
All sequences stand within: GGGAGUUCUACAGUCCGACGAUC … CAACAGAGGAUUGAGCAUCA
Sequence = CAUGCAUUUUAUUGGGGAUGGGAGGUUGGAAUAAUUUAUCCAAAUCUAAUGGUAUUAUUUCAUAGGCUAAUCCAGUUUGUAUUUGAGUUAAAGAUCCCAGAGUGUAGUAAUUAAUUGCAG; value = 2.3 ratio
Sequence = GUCGGAGACCUGAGAGAUGUUAACCAAAUUCGAGACCAAGAGCGCGCGGGUCAAAGGGCUCAGCUUUCACCCCAAAAGACCUUGGAUCCUGACUAGUUUACAUAAUGGGGUCAUCCAGUU; value = 0.407 ratio
Sequence = AAAGGUUUCCUGCUACAGGAGGGGAGAAAGCUGUGCAGUCUCUUGGGAAAGGACUUUUCCCUUAGAGUGGGCCUCGGGGCUGCACUCCAGAGUUGUGGCAAUCUGCCUAAGUUUCCAAAC; value = 0.145 ratio
Sequence = ACUUCAUUUUGAUUGAGUACAUGAUUUUUGAACAACUCCUAUACCUGCUCUUUGUAAGAAAUUAAAUAAAGUUAUUUUGGAUUGUUCCACCUUUGUAAACAAUUGGCUAAAGAGGGAUCA; value = 0.456 ratio
Sequence = GUACGAGGCAUAUUAAUGAAUGAGGAGGUCCUAGGAAACCAGAUUCACUUGCAUGUGACAACUAGGGAAUAUGGUGCCCGGGUCUCCAACCUACACAUGUACUCAGCUGUUUGUGCUGAC; value = 0.267 ratio
Sequence = GGCAGCACAGCUGUUGGGUCUCAGUGCCCUUUUUUACCUUCUGAACAAGGGAAUAAUGAAGAGACUAUUUCGUCUGUUGAUGAACUGAAAAUUCCCAAAGACUGUGAUCGUUAUGAUGAU; value = 0.679 ratio
Sequence = GCACCAUUCAAGUUCGACAUGGAAUUGGAUGACUUGCCUAAGGAAAAGCUCAAAGAACUAAUUUUUGAAGAGACUGCUAGAUUCCAGCCAGGAUACAGAUCUUAAAUUUGUCAGGACAAG; value = 0.274 ratio
Sequence = AACCAAGGUGCUUCUCCUGGGGGGCUGCUGGACCCGGCCUGCCAGAAGACGGACCAUUUCCUGUCCUGCUACCCCUGGUUCCACGGCCCCAUCUCCAGAGUGAAAGCAGCUCAGCUGGUU; value = 0.0745 ratio

Series 2
Target: Centromere-binding protein 1, full length, N-terminal tag (CBF1, Saccharomyces cerevisiae, UniProt P17106, residues 1-351)
UniProt P17106, sequence (whole entry, looked up): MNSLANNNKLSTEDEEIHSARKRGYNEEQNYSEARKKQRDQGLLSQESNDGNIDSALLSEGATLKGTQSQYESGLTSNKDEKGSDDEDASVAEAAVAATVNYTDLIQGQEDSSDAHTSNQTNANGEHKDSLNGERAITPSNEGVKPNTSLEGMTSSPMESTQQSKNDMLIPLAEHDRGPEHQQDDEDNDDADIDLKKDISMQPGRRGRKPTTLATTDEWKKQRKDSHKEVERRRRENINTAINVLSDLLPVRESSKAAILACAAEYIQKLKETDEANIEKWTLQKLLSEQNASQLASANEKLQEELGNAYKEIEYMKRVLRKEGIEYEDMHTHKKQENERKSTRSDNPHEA
Method: protein-binding microarray
Form: double-stranded DNA, one strand shown
Matrix: in vitro
Concentration: 0.8 µM
Notes: whole 60-bp probe, no competitor
Reading: higher = stronger binding
Quantity: fluorescence intensity
All sequences stand within: … GTCTTGATTCGCTTGACGCTGCTG
Sequence = GAAAAATATAGTGTGATCATCGTCATATATTTTTAG; value = 675 a.u.
Sequence = GAAAAGCTGGCAGGTGACCCGCCGCACCTGCACTAG; value = 4520 a.u.
Sequence = CTAACAATGAGAGGAAAGGTGACTTTTTAAGGGTTC; value = 543 a.u.
Sequence = TGTACGAAGCTATTCCATGTGCATATAGTAGTTAGG; value = 558 a.u.
Sequence = GAAAATTTCAGTTTCCCCGTGGCAAGTGATAGTTAG; value = 587 a.u.
Sequence = GAAAACACATATTTTCACATGTCAGGAATTTTCTAG; value = 798 a.u.
Sequence = CTAGTGCGAAGTGACCGCGTGGAAGGCCGGGTATTC; value = 525 a.u.
Sequence = CTACGAACCATAGCTGATGGAACTCCGCTTTTCTTC; value = 522 a.u.

Series 3
Target: CCNA2, cyclin fold, Cln2 fusion (human)
Method: yeast growth competition, sequencing
Matrix: yeast
Notes: strong parent motif
Baseline: not given
Reading: higher = stronger binding
Quantity: normalised enrichment score
Parent: E2F1 docking peptide (human); PPVKRRLDLETDH; partner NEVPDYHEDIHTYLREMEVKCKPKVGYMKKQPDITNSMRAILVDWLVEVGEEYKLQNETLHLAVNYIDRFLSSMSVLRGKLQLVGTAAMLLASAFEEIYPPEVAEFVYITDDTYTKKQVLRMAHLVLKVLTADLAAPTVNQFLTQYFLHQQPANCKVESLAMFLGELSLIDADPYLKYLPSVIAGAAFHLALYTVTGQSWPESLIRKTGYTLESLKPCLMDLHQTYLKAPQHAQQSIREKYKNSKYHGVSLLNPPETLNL
Substitution = P2G; value = 4.43
Substitution = H13V; value = 4.77
Substitution = K4T; value = -0.491
Substitution = K4W; value = 1.54
Substitution = D8G; value = 2.17
Substitution = R6E; value = 1.32
Substitution = D12I; value = 3.89
Substitution = T11C; value = 4.19

Single results of other studies
Structure (SMILES) = COc1ccc(COc2ccc(Cc3cnc(N)nc3N)cc2OC)cc1; target = Tyrosine-protein kinase Blk (BLK, Homo sapiens, UniProt P51451); assay = enzyme activity, inhibitor; conditions = 0.5 µM; how to read = baseline: control; quantity = remaining activity; value = 98.6%

Excerpt of the above (series 3):
Substitution = P2G; value = 4.43
Substitution = H13V; value = 4.77
Substitution = K4T; value = -0.491
Substitution = K4W; value = 1.54
